# Experimental data pooled from the literature.
# Parts stem from different laboratories: compare values within a part only.

# Set 1
# Target: Sal-like protein 4, full length isoform B (SALL4, Homo sapiens, UniProt Q9UJQ4-2, residues 1-616)
# Technique: universal PBM
# Molecule type: double-stranded DNA, one strand shown
# Medium: in vitro
# Concentration: not given
# Setting: 8-mer, flanks averaged, mean of replicates
# Direction: higher = stronger binding
# Construct (chain): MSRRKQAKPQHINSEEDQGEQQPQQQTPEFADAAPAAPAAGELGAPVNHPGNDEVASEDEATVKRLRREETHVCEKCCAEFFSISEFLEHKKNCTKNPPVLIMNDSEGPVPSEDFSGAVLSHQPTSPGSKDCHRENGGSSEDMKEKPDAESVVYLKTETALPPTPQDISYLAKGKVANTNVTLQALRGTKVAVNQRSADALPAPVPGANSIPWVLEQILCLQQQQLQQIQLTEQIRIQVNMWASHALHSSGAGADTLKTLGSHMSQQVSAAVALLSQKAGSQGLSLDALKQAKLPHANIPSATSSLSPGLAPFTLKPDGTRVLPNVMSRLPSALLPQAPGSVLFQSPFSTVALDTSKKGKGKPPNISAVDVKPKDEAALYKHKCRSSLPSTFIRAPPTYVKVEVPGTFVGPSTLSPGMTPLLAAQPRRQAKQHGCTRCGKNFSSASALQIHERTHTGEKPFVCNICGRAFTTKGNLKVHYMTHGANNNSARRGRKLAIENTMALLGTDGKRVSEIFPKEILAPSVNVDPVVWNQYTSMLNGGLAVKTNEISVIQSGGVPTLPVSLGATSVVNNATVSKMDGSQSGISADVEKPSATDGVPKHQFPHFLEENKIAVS
Oligonucleotide,E-score
GGTCAAGA,-0.101
GGCTTATA,0.222
ATGAGGAG,0.0916
CGAAGGCC,-0.225
TAGGTCAA,0.128
CTGAGCGC,-0.293
ACGGGAAT,0.0849
ATACGTGC,-0.00069

# Set 2
# Target: Histone acetyltransferase KAT6A, winged helix 1, GST fusion (KAT6A, Homo sapiens, UniProt Q92794, residues 1-85)
# Technique: protein binding microarray
# Molecule type: double-stranded DNA, one strand shown
# Medium: in vitro
# Concentration: not given
# Setting: 8-mer, flanks averaged, mean of 2 arrays, mostly near background
# Relative to: not given
# Direction: higher = stronger binding
# Residues (chain): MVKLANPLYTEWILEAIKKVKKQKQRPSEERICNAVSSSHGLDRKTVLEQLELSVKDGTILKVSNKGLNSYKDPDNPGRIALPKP
Oligonucleotide,E-score
CTGAAATA,-0.185
ATCTGCTC,-0.179
CTCAAGAG,-0.272
ACCGGAAT,0.102
GAGTCTAC,0.00083
ATATCTGA,-0.139
TGCCACAA,-0.209
CTAAACTC,-0.0953

# Set 3
# Target: RNA binding protein fox-1 homolog 2, RRM domain, GST-SBP tag (RBFOX2, Homo sapiens, UniProt O43251-10, residues 100-194)
# Technique: RNA Bind-n-Seq
# Molecule type: RNA
# Medium: in vitro
# Concentration: 365 nM
# Setting: natural RNA segment, single round, ends assumed
# Relative to: no-protein control
# Direction: higher = stronger binding
# Constant ends, left off below: GGGAGUUCUACAGUCCGACGAUC … UGGAAUUCUCGGGUGCCAA
# Construct (chain): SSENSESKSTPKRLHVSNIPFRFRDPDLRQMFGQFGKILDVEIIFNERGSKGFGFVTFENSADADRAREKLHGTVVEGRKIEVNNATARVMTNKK
Oligonucleotide,RBNS enrichment (R)
AAUUAUUUUAUAUGACCUAUAAAUUUAAAAAUGUUUUUCAGUGAGUGCUUUUAACAAACUUAAGCUUCUGCCCUGCCAAGGGAAUUAAUGUUAUCUUGUGAAAGGUGUUG,0.346
UGAACAGCCUCGAUUUUUAAGAAAAUUUAUGAAAUGUAUUUGUCUGUAAAAAUUGUAUAUAUUUUUACAGAAAGUCUAUUUCUUUGAACAUAAGAGGGAAGUCUUGGAUU,0.688
AAGAGGAGUAACCAGAGGACACACUUCCUUCCUUCUUUGGUGUCUGAGGAGUGUGAACUGUUGGGGUCAGUUAAGACCCAACAUAACUCUAUCAGAAGAAAACUGUUGUU,0.405
AGACAGAAUCCACUCCUAAGUUAGGACAUGGAGCCCAGAUACUAUGAUACCAAAUUCAGGGGUGUCACAGCCAUUUUGUUCUGCCCUGCAAGUUUUAGAUCCAAUCUGCC,0.608
UCUGCAUGAAGGAUACAUCGUGGUGCCACAUGCUUUAAGCAAUUUAAACAAGAGAGAUAAGAGGAAAAUGCAACCACCACAUCUGACUUGCCCAAUGUAGACUUUCCUUU,1.26

# Set 4
# Target: Interferon regulatory factor 5, full length, phosphomimetic (IRF5, Homo sapiens, UniProt Q13568-2, residues 1-514, K96S/S451D/S453D/S456D/S462D)
# Technique: protein-binding microarray
# Molecule type: double-stranded DNA, one strand shown
# Medium: in vitro
# Concentration: 250 nM
# Setting: 60-bp whole probe
# Added: salmon DNA 0.4 mg/ml
# Relative to: random background probes
# Direction: higher = stronger binding
# Constant ends, left off below: GCCTAGCAC … GTCTTGATTCGCTTGACGCTGCTG
Oligonucleotide,log fluorescence [z-score]
CAAGTTTTTATTTTCTGAATGTGCTAG,1.76
TCGTTTCCCAAGTTTATACCTGTGCTA,0.738
GACGAACTAGGGACTGGAGACGTGCTA,-0.548
GACGGTATCCTTAGCCTGACGTGCTAG,-0.22
TTAGGTATCGACTTTCGATTAGTGCTA,9.25
TCAAATGTCCTTTCTCCAACTGTGCTA,1
TTAGAACTGAGACTGGCTTAGTGCTAG,-0.317
TCACCTCCAGGTTCTCTGACTGTGCTA,-0.282

# Set 5
# Target: Replicase polyprotein 1ab, nsp13 helicase (rep, Severe acute respiratory syndrome coronavirus 2, UniProt P0DTD1)
# Mode: inhibitor
# Concentration: 20 µM
Compound,inhibition [%]
CCCc1c2oc(C(=O)O)cc(=O)c2cc2c(=O)cc(C(=O)O)n(CC)c12,4.09
C=CCN1C[C@H](C)N([C@H](c2ccc(C(=O)N(CC)CC)cc2)c2cccc(OC)c2)C[C@H]1C,8.19
CC(Oc1ccc(O)cc1)(P(=O)(O)O)P(=O)(O)O,0.02
CC1(C)CC(Oc2ccc(-c3ccc(-c4cn[nH]c4)cc3O)nn2)CC(C)(C)N1,4.14
CN[C@@H]1Cc2cccc3[nH]c(=O)n(c23)C1,6.4
O=C(N[C@H]1CN2CCC1CC2)c1cc2cccc(Cl)c2s1,7.14
COc1ccc(-c2sc(NC(=O)C(C)(C)C)nc2C)cc1S(=O)(=O)Nc1ccc(O)cc1,1.51
O=C(Nc1ccc2c(O)cc(S(=O)(=O)O)cc2c1)Nc1ccc2c(O)cc(S(=O)(=O)O)cc2c1,84.8
N[C@@H](CC(=O)NO)C(=O)O,4.31
O=C(Nc1cc(-c2ccccc2)nn1-c1ccccc1F)c1ccc([N+](=O)[O-])cc1,6.17
CC(C)c1c(CN(C)C(C)Cc2ccccc2)n(C)n(-c2ccccc2)c1=O (stereo not shown),5.63
O=c1c(O)c(-c2ccc(O)cc2O)oc2cc(O)cc(O)c12,39.3
CCN(CC)CCOC(=O)c1ccc(N)cc1,4.31
Cc1cccc(-c2nn3c(c2-c2ccnc4ccc(C(N)=O)cc24)CCC3)n1,1.9
CNC(=O)c1ccccc1Nc1nc(Nc2ccc3c(c2OC)CCC[C@H](N2CCN(CCO)CC2)C3)ncc1Cl,2.5
O=C(OCCN1CCCCC1)c1c[nH]c2ccccc12,4.63
Clc1cccc(Cl)c1CSc1nnc(-c2cnccn2)s1,3.26
COc1cc(N)c(Cl)cc1C(=O)OCCCN1CCCCC1,-1.03
CC(C)(C)NC(=O)[C@@H]1CN(Cc2cccnc2)CCN1C[C@@H](O)C[C@@H](Cc1ccccc1)C(=O)N[C@H]1c2ccccc2C[C@H]1O,-2.54
C=C(C)[C@@H]1CC[C@]2(C(=O)O)CC[C@]3(C)[C@H](CC[C@@H]4[C@@]5(C)CC[C@H](OC(=O)CC(C)(C)C(=O)O)C(C)(C)[C@@H]5CC[C@]43C)[C@@H]12,6.53
CCCCOC(=O)c1cc2c(cn1)[nH]c1ccccc12,0.32
Cc1ccc(O)c(N=Nc2ccccc2)n1,5.96
Oc1ccc(Cl)c2c1CCC2,5.54
O=C(O[C@H]1C[N+]2(CCCOc3ccccc3)CCC1CC2)C(O)(c1cccs1)c1cccs1,6.3
O=C(Nc1ccc(S(=O)(=O)C(F)(F)F)cc1)C1=CCN(c2ncccc2C(F)(F)F)CC1,26

# Other studies, line by line
Structure (SMILES),target,observed,mode,added,measurement,value
N#CSc1cc(SC#N)c(N)nc1N,"Replicase polyprotein 1ab, main protease (rep, Severe acute respiratory syndrome coronavirus 2, UniProt P0DTD1)",enzyme activity,inhibitor,DTT,IC50,4.4 µM

# Repeated from above (set 1):
Oligonucleotide,E-score
GGTCAAGA,-0.101
GGCTTATA,0.222
ATGAGGAG,0.0916
CGAAGGCC,-0.225
